# Published values of several laboratories.
# Parts stem from different laboratories: compare values within a part only.
# Sequence of UniProt Q2M2I8 (whole entry, looked up): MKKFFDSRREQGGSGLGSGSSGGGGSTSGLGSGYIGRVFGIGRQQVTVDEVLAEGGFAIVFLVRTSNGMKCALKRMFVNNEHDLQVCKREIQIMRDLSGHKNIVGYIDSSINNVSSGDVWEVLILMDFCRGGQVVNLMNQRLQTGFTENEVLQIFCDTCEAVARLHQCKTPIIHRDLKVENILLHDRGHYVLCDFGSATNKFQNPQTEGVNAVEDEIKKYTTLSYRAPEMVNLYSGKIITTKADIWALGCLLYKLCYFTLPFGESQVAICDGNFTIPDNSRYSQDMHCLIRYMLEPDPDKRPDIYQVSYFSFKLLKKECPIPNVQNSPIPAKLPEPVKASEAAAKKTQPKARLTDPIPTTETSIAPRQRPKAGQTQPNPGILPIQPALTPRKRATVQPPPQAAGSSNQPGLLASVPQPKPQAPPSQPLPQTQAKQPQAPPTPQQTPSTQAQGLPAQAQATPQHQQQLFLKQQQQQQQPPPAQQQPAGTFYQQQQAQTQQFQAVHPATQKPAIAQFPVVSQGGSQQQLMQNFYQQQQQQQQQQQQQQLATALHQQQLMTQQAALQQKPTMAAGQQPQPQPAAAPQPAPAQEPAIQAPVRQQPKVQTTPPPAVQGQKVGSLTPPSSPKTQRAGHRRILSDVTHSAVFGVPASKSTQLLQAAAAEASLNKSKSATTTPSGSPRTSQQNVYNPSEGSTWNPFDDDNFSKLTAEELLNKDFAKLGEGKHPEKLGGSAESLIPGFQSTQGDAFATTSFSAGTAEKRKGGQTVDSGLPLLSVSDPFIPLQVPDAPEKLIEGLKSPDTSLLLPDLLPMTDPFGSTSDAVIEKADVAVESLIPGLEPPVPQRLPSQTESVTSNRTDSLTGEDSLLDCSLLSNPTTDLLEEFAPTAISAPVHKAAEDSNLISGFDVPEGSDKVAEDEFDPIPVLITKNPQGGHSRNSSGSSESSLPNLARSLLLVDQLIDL
# Sequence of UniProt P11362 (whole entry, looked up): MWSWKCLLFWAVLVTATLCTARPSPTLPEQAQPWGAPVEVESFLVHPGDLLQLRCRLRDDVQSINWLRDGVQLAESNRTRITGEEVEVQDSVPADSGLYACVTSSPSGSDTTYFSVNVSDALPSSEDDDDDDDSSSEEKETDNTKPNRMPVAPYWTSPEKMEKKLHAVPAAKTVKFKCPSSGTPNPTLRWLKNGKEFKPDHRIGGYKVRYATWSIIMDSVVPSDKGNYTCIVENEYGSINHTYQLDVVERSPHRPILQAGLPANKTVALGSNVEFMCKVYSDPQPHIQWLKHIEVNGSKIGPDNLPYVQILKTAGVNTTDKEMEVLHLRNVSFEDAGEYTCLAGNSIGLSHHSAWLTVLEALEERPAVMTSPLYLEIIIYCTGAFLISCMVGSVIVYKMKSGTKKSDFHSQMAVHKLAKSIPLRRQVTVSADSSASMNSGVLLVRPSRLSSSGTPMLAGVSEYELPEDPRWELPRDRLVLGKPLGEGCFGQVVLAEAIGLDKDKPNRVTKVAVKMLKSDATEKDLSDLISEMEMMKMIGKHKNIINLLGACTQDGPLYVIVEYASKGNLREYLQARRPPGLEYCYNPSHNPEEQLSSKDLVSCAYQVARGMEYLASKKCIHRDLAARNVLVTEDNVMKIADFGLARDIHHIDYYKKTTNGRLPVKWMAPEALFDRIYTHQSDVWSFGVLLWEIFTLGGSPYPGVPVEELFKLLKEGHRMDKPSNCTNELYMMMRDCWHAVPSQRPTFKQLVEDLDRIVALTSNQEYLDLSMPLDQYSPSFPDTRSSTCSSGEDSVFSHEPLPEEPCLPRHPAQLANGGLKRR

# Study 1
# Target: Sal-like protein 4, full length isoform A (SALL4, Homo sapiens, UniProt Q9UJQ4, residues 1-1053)
# Sequence of UniProt Q9UJQ4 (whole entry, looked up): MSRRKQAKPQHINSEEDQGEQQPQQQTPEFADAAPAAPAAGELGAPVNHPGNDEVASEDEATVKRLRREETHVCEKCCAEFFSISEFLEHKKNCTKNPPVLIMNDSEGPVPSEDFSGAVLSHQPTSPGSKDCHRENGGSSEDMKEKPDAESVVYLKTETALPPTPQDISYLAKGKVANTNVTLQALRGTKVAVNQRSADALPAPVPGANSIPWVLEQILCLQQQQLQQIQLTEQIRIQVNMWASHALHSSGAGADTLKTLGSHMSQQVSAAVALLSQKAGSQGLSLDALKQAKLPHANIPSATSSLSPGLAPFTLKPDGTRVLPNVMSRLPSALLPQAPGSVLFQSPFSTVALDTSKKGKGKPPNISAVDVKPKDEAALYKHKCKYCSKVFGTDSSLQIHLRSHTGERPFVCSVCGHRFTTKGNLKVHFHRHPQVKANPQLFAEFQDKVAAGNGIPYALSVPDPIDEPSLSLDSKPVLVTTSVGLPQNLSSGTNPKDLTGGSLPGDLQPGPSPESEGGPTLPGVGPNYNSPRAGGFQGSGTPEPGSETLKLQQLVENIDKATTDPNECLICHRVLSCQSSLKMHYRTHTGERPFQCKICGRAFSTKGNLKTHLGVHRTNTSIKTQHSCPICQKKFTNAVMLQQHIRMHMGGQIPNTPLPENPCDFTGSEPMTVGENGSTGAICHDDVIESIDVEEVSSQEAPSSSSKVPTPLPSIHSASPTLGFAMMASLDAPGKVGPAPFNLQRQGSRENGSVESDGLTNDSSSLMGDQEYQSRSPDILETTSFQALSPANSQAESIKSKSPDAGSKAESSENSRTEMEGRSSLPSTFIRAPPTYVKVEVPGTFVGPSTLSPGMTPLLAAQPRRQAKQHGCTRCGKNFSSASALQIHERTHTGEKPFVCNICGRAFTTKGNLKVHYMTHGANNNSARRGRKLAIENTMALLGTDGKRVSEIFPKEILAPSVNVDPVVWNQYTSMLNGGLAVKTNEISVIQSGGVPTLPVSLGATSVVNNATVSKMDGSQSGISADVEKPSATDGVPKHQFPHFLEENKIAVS
# Technique: universal PBM
# Molecule type: double-stranded DNA, one strand shown
# Sample: in vitro
# Tested at: 600 nM
# Setting: 8-mer, flanks averaged, mean of replicates
# Direction: higher = stronger binding
Strand,E-score
CCGGCTCA,-0.1
CCGCCTAA,-0.159
CGAACTCA,-0.15
AGCCGCCT,-0.322
AAAGGTAA,0.197
ACTCTGTC,-0.0192
CTTTGCAC,0.112
ACACACAG,-0.0389

# Study 2
# Structure (SMILES): Nc1cnc(N2CCc3cc(S(=O)(=O)Nc4c(F)cc(Cl)cc4F)cc(N4CCCC4=O)c32)nc1
# Tested at: 1 µM
target,observed,technique,remaining binding
"EGFR (Homo sapiens, UniProt P00533, del746-750)",cell-free assay,competition with immobilised ligand,74%
"AAK1 (Homo sapiens, UniProt Q2M2I8)",binding,,100%
"FGFR1 (Homo sapiens, UniProt P11362)",cell-free assay,competition with immobilised ligand,88%

# Study 3
# Target: Homeobox protein Hox-B13, full length (HOXB13, Homo sapiens, UniProt Q92826, residues 1-284)
# Sequence of UniProt Q92826 (whole entry, looked up): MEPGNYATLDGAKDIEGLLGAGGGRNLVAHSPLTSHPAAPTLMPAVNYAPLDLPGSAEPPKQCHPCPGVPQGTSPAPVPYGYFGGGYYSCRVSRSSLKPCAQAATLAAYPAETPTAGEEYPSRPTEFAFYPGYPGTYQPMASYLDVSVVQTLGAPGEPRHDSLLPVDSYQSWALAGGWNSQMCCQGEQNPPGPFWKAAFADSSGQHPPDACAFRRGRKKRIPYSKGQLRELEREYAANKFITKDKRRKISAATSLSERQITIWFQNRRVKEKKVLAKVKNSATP
# Technique: protein-binding microarray
# Molecule type: hairpin DNA
# Sample: in vitro
# Tested at: not given
# Setting: whole hairpin DNA, median over replicate spots
# Reference: not given
# Direction: higher = stronger binding
# All sequences stand within: GAGGCCG … CGGCCTCACACTC
Strand,median fluorescence [a.u.]
CGTTATTGGGGCCTCCTGGCCCCAATAACG (5mC at 36),4290
TTTTACGGGGGCCTCCTGGCCCCCGTAAAA (5mC at 31),5400
TTTTATGAGGGCCTCCTGGCCCTCATAAAA,5080
TTTTATGGGGGCCTCCTGGCCCCCATAAAA,4960
TTTTAGGAGGGCCTCCTGGCCCTCCTAAAA,4010
TTTTAGTGGGGCCTCCTGGCCCCACTAAAA (5mC at 32),4550
CGTTACGAGGGCCTCCTGGCCCTCGTAACG (5mC at 8 36),4610
ATTTATTGGGGCCTCCTGGCCCCAATAAAT,5030

# Mixed results
# Rela Rel homology region: Transcription factor p65, Rel homology region (Rela, Mus musculus, UniProt Q04207, residues 1-314)
# Sequence of UniProt Q04207 (1-314, looked up): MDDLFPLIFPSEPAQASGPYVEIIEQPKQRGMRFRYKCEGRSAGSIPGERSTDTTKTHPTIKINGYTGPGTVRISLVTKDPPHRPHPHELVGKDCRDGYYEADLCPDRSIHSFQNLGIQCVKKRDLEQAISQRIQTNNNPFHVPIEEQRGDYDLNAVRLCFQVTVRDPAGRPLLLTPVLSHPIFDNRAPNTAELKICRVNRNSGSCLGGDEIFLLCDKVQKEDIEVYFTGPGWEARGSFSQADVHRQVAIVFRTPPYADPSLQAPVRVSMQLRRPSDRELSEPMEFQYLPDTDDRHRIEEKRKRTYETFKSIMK
Molecule,target or system,assay,system,setting,how to read,measurement,result
GGGGGGAGTA,Rela Rel homology region,surface plasmon resonance,"double-stranded DNA, one strand shown, in vitro","1 nM to 1 µM, 10-bp κB site, 1:1 kinetic fit, 10 °C",higher = slower dissociation,dissociation half-life,4 s
CCC[C@H]1NC(=O)CSC[C@@H](C(=O)OCC)N(C)C(=O)[C@H](CC(C)C)NC(=O)[C@H](C)N(C)C(=O)[C@H](CC(C)C)NC(=O)[C@H](C)N(C)C(=O)[C@H]2CCCN2C(=O)[C@H](CC(C)C)NC(=O)CN(CCC)C1=O,,,hydrocarbon/water,,,logD,1.34
GGAATTTCTT,Rela Rel homology region,surface plasmon resonance,"double-stranded DNA, one strand shown, in vitro","1 nM to 1 µM, 10-bp κB site, 1:1 kinetic fit, 10 °C",higher = slower dissociation,dissociation half-life,3 s

# A few entries again (study 3):
Strand,median fluorescence [a.u.]
TTTTAGGAGGGCCTCCTGGCCCTCCTAAAA,4010
TTTTAGTGGGGCCTCCTGGCCCCACTAAAA (5mC at 32),4550
